Measurements pooled from the literature.
Every numbered part comes from another study and shows a few of its results, in no order. Values joined by “and” are separate records of one study, mostly repeats; a detail may differ.
Chain of UniProt P60842 (whole entry, looked up): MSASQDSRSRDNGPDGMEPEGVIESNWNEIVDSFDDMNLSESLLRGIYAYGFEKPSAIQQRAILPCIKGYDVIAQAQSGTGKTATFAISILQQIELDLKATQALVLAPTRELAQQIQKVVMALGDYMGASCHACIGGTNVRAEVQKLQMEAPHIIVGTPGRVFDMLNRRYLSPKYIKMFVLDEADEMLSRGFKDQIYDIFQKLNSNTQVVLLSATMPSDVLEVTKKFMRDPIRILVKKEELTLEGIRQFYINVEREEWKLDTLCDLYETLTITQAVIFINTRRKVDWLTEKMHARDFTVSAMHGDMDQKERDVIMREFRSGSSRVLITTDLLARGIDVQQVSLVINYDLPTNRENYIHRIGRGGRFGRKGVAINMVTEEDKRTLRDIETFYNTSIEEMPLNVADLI
Chain of UniProt O75417 (whole entry, unmodified, looked up): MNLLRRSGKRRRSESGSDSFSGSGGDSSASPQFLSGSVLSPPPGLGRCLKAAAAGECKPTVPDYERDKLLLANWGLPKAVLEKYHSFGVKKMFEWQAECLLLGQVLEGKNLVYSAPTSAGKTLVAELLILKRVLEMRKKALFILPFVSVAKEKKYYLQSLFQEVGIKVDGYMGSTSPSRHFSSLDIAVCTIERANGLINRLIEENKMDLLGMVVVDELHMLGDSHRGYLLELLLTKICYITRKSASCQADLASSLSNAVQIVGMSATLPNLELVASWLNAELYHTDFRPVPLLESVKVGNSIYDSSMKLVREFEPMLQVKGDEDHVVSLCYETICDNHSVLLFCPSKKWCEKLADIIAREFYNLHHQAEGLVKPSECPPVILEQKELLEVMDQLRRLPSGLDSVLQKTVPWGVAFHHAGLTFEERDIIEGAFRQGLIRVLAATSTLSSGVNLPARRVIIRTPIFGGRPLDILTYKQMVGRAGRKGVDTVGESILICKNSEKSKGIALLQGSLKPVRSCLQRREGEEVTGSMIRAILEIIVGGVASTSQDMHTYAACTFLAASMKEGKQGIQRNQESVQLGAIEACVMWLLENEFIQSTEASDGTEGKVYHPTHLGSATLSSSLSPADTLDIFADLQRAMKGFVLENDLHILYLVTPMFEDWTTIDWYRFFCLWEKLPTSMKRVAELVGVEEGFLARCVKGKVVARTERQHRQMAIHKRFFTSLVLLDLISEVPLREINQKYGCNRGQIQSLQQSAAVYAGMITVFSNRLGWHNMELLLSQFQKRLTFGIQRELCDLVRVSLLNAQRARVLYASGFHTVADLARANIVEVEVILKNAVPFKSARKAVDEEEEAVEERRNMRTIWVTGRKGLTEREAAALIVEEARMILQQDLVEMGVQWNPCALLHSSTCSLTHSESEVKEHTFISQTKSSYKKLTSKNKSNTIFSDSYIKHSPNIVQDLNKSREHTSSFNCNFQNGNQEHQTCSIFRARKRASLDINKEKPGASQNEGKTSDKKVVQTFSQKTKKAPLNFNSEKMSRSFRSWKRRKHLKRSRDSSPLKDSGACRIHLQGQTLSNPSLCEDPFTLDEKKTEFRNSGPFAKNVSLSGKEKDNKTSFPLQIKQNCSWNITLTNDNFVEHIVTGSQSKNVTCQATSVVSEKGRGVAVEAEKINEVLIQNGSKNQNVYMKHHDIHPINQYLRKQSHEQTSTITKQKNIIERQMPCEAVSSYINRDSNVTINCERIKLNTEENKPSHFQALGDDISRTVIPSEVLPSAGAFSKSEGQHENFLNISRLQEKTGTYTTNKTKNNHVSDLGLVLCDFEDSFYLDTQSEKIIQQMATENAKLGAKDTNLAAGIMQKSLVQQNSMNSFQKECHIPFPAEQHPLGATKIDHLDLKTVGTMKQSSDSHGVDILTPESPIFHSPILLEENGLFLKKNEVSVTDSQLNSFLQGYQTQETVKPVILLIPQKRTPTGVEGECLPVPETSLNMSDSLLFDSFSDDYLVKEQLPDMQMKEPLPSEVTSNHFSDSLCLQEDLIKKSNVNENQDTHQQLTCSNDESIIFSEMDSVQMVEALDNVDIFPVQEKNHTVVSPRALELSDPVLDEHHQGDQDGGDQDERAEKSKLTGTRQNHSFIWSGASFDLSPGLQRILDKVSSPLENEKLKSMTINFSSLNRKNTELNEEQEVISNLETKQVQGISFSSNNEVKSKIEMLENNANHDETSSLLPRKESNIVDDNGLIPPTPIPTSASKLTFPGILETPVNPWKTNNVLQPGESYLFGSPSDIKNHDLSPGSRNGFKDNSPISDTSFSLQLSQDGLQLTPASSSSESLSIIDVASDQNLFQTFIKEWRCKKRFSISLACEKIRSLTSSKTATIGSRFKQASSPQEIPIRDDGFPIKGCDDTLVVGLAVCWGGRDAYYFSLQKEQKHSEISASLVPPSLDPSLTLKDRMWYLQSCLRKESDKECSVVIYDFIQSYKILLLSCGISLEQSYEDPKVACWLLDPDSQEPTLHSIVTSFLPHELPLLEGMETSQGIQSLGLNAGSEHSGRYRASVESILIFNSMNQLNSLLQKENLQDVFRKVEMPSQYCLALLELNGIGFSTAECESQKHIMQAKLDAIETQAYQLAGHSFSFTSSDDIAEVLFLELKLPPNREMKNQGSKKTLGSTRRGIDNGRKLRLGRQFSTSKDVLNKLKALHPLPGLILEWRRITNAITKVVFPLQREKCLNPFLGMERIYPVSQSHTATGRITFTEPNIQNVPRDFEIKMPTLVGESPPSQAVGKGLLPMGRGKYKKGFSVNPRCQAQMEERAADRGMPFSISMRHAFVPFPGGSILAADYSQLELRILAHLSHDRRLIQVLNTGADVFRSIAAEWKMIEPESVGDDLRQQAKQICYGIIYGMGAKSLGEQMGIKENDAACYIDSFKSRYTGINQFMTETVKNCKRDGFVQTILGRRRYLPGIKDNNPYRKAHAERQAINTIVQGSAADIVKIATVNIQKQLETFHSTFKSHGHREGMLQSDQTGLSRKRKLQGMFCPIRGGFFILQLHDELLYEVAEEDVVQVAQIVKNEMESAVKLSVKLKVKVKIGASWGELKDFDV
Chain of UniProt Q9UQM7 (whole entry, looked up): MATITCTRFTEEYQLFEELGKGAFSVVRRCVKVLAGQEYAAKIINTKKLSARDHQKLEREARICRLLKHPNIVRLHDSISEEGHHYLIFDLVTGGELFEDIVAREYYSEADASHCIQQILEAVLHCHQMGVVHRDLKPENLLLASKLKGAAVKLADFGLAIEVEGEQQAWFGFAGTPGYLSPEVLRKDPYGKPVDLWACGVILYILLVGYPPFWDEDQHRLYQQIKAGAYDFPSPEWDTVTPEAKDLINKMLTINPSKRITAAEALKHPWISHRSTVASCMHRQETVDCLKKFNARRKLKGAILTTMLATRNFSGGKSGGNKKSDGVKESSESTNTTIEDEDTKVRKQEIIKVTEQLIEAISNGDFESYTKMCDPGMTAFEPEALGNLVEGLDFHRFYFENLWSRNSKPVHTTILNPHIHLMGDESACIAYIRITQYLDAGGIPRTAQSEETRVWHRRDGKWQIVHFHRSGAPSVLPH

Study 1 — observed: Ni-NTA bead binding; technique: phage display NGS; molecule type: peptide; sample: phage-displayed 15-mer library; tested at: concentration not given; together with: Ni-NTA beads 20 µL; relative to: input library
| Sequence | enrichment fold change |
| --- | --- |
| TAPFYPPAYAIQVFK | 0.785 |
| TAPFYPPAYFIQVFK | 1.87 |
| TAPFYPPAYEIQVFK | 0.737 |

Single results of other studies
| Compound | tested on | test | test system | conditions | how to read | quantity | value |
| --- | --- | --- | --- | --- | --- | --- | --- |
| COC(=O)[C@@H]1[C@@H](c2ccccc2)[C@]2(c3ccc(OC)cc3)Oc3cc(OC)cc(OC)c3[C@@]1(O)[C@@H]2O | EIF4A1 (Homo sapiens, UniProt P60842) | RNA clamping, fluorescence polarization | – | concentration not given, together with: FAM-labelled poly r(AG)8 RNA | higher = more clamping | fluorescence polarization change | 8.2 mP and 7.1 mP and 11.9 mP and 7.6 mP |
| c1cc2c(cn1)CN(c1ncnc3sc4c(c13)CCCC4)C2 | – | – | human, microsomes or S9 | 2 µM, 0.5 h | – | remaining compound | 0.648% |
| C=C[C@H]1CN2CC[C@H]1C[C@@H]2[C@@H](O)c1ccnc2ccccc12 | CAMK2A (Homo sapiens, UniProt Q9UQM7) | enzyme activity, inhibitor | – | 10 µM | – | inhibition | 9% |
| CC(C)=CCN1CCCC(C(=O)c2nccn2C)C1 (centres unmarked) | – | – | human, microsomes or S9 | 2 µM, 0.5 h | – | remaining compound | 84.9% |
| C[N+]1(C)CCOC(O)(c2ccc(-c3ccc(C4(O)C[N+](C)(C)CCO4)cc3)cc2)C1 (centres unmarked) | DNA polymerase theta, ATPase domain (POLQ, Homo sapiens, UniProt O75417) | enzyme activity, inhibitor | – | 77 µM | relative to: untreated | remaining activity | 93% |

A few entries again (single results of other studies):
| Compound | tested on | test | test system | conditions | how to read | quantity | value |
| --- | --- | --- | --- | --- | --- | --- | --- |
| C[N+]1(C)CCOC(O)(c2ccc(-c3ccc(C4(O)C[N+](C)(C)CCO4)cc3)cc2)C1 (centres unmarked) | DNA polymerase theta, ATPase domain (POLQ, Homo sapiens, UniProt O75417) | enzyme activity, inhibitor | – | 77 µM | relative to: untreated | remaining activity | 93% |
